Measured values collected from several papers.
Parts stem from different laboratories: compare values within a part only. “And” joins repeats or separate records; there may be more than shown.
Sequence of UniProt P00519 (whole entry, unmodified, looked up): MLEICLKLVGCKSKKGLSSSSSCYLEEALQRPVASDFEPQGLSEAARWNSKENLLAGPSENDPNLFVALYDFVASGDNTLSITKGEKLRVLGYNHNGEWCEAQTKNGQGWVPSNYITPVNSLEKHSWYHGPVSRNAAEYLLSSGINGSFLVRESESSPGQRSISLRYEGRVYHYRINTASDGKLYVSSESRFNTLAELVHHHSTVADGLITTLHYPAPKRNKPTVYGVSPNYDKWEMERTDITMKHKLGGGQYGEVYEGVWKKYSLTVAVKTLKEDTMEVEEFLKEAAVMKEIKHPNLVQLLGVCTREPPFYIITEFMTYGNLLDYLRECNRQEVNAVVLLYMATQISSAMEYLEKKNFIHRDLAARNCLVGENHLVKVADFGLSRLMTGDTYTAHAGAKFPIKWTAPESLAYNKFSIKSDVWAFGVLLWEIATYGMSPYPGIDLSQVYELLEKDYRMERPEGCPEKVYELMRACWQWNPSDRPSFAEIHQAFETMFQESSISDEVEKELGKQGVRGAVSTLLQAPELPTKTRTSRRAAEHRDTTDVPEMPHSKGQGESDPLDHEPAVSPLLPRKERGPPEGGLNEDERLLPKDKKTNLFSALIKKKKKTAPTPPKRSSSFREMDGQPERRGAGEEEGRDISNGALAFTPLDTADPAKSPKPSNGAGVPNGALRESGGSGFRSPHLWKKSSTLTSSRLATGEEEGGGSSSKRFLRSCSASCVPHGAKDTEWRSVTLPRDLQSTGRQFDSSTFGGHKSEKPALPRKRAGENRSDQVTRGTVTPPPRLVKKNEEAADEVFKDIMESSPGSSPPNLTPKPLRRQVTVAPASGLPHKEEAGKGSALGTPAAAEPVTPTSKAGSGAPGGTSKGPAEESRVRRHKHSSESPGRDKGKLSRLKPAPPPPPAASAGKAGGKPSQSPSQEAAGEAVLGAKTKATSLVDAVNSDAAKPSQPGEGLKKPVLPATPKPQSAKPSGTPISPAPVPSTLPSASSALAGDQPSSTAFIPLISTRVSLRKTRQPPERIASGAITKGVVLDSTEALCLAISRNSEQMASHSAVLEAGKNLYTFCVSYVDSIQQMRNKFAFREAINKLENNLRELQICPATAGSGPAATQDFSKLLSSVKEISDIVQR
Sequence of UniProt P48729 (whole entry, looked up): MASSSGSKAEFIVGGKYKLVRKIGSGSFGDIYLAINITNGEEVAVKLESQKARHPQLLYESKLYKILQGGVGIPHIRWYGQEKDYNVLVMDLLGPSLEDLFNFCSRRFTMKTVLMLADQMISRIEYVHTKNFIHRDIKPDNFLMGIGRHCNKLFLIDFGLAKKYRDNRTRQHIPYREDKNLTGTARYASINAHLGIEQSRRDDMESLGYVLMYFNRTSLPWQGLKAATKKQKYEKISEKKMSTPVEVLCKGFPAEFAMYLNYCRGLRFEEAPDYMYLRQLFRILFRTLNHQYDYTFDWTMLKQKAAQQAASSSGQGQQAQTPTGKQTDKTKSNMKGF

Sample 1 — concentration: 1 µM
Compound: CC[C@@]1(c2cccc(-c3c(F)cncc3OC)c2)C2=C(Nc3n[nH]cc31)[C@H](F)C(C)(C)CC2=O (single isomer, unassigned)
It gave 64% for remaining binding (Phosphatidylinositol 4,5-bisphosphate 3-kinase catalytic subunit alpha isoform (PIK3CA, Homo sapiens, UniProt P42336); binding, competition with immobilised ligand).
It gave 100% for remaining binding (Activated CDC42 kinase 1 (TNK2, Homo sapiens, UniProt Q07912); kinase binding, KINOMEscan; reference: DMSO control).
For Tyrosine-protein kinase ABL1, phosphorylated (ABL1, Homo sapiens, UniProt P00519, E255K); binding, competition with immobilised ligand: remaining binding read 79%.
The remaining binding was 64% (Dual specificity tyrosine-phosphorylation-regulated kinase 1A (DYRK1A, Homo sapiens, UniProt Q13627); kinase binding, KINOMEscan; reference: DMSO control).
The remaining binding was 94% (Proto-oncogene tyrosine-protein kinase Src (SRC, Homo sapiens, UniProt P12931); kinase binding, KINOMEscan; reference: DMSO control).
It gave 100% for remaining binding (Serine/threonine-protein kinase BRSK1 (BRSK1, Homo sapiens, UniProt Q8TDC3); binding, competition with immobilised ligand).
The remaining binding was 76% (Dual specificity mitogen-activated protein kinase kinase 1 (MAP2K1, Homo sapiens, UniProt Q02750); kinase binding, KINOMEscan; reference: DMSO control).
Insulin-like growth factor 1 receptor (IGF1R, Homo sapiens, UniProt P08069); kinase binding, KINOMEscan; reference: DMSO control — remaining binding: 86%.
The remaining binding was 87% (Calcium/calmodulin-dependent protein kinase type II subunit gamma (CAMK2G, Homo sapiens, UniProt Q13555); binding, competition with immobilised ligand).
The remaining binding was 76% (Serine/threonine-protein kinase DCLK3 (DCLK3, Homo sapiens, UniProt Q9C098); binding, competition with immobilised ligand).
Casein kinase I isoform alpha (CSNK1A1, Homo sapiens, UniProt P48729); binding, competition with immobilised ligand — remaining binding: 66%.
The remaining binding was 100% (Mast/stem cell growth factor receptor Kit (KIT, Homo sapiens, UniProt P10721, V559D); kinase binding, KINOMEscan; reference: DMSO control).
Phosphatidylinositol 4,5-bisphosphate 3-kinase catalytic subunit alpha isoform (PIK3CA, Homo sapiens, UniProt P42336, M1043I); kinase binding, KINOMEscan; reference: DMSO control — remaining binding: 92%.
It gave 100% for remaining binding (Tyrosine-protein kinase JAK1, JH1 (JAK1, Homo sapiens, UniProt P23458); binding, competition with immobilised ligand).
It gave 87% for remaining binding (Tyrosine-protein kinase ABL1, non-phosphorylated (ABL1, Homo sapiens, UniProt P00519, F317L); kinase binding, KINOMEscan; reference: DMSO control).
Cyclin-dependent kinase 9 (CDK9, Homo sapiens, UniProt P50750); kinase binding, KINOMEscan; reference: DMSO control — remaining binding: 100%.
The remaining binding was 56% (Mitogen-activated protein kinase 8 (MAPK8, Homo sapiens, UniProt P45983); binding, competition with immobilised ligand).
For Hepatocyte growth factor receptor (MET, Homo sapiens, UniProt P08581, Y1235D); kinase binding, KINOMEscan; reference: DMSO control: remaining binding read 75%.

Sample 2 — mode: degrader; technique: automated immunoblot (Jess); time: 24 h
SMILES: Cc1ccc(O)c(C)c1-c1cnc2[nH]c(-c3cnc(N4CCC5(CC4)CC(N4CCN(c6ccc(N[C@H]7CCC(=O)N(C)C7=O)cc6F)CC4)CO5)nc3)cc2c1C#N (single isomer, unassigned)
Target: Membrane-associated tyrosine- and threonine-specific cdc2-inhibitory kinase (PKMYT1, Homo sapiens, UniProt Q99640)
Sequence of UniProt Q99640 (whole entry, looked up): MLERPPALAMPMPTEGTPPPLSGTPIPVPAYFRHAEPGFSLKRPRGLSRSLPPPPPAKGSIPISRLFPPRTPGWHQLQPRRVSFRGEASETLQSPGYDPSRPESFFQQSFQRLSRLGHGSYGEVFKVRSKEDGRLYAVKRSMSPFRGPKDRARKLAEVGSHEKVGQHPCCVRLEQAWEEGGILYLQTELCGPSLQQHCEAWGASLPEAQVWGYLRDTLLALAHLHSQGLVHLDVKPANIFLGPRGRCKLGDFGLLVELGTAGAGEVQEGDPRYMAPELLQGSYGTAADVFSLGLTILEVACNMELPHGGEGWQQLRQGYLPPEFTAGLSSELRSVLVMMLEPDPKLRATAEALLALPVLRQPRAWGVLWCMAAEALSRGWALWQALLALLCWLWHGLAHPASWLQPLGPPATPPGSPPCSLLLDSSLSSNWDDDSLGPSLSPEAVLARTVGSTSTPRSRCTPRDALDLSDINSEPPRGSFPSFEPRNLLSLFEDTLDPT
1.37 nM — degradation: 14.9%.
The degradation was 3.17% (0.02 nM).
The degradation was 11.3% (37.04 nM).
The degradation was 42.7% (1000 nM).
12.35 nM — degradation: 5.47%.
It gave 22.8% for degradation (333.33 nM).
For 0.15 nM: degradation read 11.3%.
It gave 9.18% for degradation (4.12 nM).

Sample 3 — effect on: enzyme activity
SMILES: NC/C(=C\F)COc1ccc(Cn2c(=S)[nH]c(=O)c3[nH]cnc32)cc1
AOC3: Amine oxidase [copper-containing] 3 (AOC3, Homo sapiens, UniProt Q16853)
Sequence of UniProt Q16853 (whole entry, looked up): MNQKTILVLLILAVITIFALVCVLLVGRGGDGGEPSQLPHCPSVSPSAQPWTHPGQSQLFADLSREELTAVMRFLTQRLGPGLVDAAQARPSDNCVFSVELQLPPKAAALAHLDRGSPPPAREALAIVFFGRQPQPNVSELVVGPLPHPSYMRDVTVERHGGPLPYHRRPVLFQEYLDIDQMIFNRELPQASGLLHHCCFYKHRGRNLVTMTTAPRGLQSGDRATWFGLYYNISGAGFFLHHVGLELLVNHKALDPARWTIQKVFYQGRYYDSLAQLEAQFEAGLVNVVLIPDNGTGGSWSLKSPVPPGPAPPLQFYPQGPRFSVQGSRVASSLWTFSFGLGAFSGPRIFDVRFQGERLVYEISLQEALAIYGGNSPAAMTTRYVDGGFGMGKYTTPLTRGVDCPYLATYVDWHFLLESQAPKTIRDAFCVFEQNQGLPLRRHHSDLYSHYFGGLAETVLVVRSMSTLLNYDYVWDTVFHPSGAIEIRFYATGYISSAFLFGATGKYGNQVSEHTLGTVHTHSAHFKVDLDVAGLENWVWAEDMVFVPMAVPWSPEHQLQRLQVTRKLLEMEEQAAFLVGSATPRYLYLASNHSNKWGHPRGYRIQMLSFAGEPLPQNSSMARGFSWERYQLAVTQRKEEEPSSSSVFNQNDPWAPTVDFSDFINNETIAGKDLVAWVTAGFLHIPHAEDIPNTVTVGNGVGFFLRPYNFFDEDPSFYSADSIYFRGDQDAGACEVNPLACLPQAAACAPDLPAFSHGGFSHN
MPO: Myeloperoxidase (MPO, Homo sapiens, UniProt P05164)
Sequence of UniProt P05164 (whole entry, looked up): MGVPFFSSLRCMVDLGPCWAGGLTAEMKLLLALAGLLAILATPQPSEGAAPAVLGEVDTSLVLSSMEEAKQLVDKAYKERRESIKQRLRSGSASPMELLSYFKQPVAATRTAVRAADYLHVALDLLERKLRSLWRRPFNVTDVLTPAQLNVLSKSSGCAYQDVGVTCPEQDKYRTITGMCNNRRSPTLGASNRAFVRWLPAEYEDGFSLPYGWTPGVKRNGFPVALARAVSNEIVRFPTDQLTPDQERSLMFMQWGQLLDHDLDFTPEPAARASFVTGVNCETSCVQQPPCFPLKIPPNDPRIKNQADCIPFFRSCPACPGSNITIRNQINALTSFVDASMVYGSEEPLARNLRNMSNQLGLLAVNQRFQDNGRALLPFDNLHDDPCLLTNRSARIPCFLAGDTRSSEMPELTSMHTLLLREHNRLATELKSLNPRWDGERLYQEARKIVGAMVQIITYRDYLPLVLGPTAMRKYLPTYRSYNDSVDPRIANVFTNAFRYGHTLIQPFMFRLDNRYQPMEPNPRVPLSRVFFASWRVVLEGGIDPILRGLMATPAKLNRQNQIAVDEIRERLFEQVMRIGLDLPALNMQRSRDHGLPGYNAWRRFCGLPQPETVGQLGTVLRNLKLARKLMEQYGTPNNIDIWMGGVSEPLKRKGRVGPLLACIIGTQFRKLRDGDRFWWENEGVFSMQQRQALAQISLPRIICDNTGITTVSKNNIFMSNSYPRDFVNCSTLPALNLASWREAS
It gave 99.7% for inhibition (AOC3; inhibitor, fluorescence; 30 µM).
For MPO; 300 µM: inhibition read 80.4% and 77.5%.
MPO; inhibitor, fluorescence; 30 µM — inhibition: 49.5%.
It gave 100% for inhibition (AOC3; inhibitor, fluorescence; 3.333 µM).
It gave 99.3% for inhibition (AOC3; inhibitor, fluorescence; 41.2 nM).
It gave 11.5% and 4.14% for inhibition (MPO; 1.235 µM).

Sample 4 — effect on: thermal unfolding; technique: differential scanning fluorimetry; concentration: 5.5 µM; reading: higher = more unfolded
SMILES: C[C@@H]1CN(c2ccc(-c3cc(C(=O)NCCOCCOCCOCCOCCNC(=O)Cn4cc(-c5[nH]cc(C(=O)N[C@@H](CC(N)=O)c6ccc(F)c(Cl)c6)c5-c5ccc(Cl)cc5F)cn4)ccc3F)cc2NC(=O)c2c[nH]c(=O)cc2C(F)(F)F)C[C@H](C)N1C
DCAF1: DDB1- and CUL4-associated factor 1 (DCAF1, Homo sapiens, UniProt Q9Y4B6)
Sequence of UniProt Q9Y4B6 (whole entry, looked up): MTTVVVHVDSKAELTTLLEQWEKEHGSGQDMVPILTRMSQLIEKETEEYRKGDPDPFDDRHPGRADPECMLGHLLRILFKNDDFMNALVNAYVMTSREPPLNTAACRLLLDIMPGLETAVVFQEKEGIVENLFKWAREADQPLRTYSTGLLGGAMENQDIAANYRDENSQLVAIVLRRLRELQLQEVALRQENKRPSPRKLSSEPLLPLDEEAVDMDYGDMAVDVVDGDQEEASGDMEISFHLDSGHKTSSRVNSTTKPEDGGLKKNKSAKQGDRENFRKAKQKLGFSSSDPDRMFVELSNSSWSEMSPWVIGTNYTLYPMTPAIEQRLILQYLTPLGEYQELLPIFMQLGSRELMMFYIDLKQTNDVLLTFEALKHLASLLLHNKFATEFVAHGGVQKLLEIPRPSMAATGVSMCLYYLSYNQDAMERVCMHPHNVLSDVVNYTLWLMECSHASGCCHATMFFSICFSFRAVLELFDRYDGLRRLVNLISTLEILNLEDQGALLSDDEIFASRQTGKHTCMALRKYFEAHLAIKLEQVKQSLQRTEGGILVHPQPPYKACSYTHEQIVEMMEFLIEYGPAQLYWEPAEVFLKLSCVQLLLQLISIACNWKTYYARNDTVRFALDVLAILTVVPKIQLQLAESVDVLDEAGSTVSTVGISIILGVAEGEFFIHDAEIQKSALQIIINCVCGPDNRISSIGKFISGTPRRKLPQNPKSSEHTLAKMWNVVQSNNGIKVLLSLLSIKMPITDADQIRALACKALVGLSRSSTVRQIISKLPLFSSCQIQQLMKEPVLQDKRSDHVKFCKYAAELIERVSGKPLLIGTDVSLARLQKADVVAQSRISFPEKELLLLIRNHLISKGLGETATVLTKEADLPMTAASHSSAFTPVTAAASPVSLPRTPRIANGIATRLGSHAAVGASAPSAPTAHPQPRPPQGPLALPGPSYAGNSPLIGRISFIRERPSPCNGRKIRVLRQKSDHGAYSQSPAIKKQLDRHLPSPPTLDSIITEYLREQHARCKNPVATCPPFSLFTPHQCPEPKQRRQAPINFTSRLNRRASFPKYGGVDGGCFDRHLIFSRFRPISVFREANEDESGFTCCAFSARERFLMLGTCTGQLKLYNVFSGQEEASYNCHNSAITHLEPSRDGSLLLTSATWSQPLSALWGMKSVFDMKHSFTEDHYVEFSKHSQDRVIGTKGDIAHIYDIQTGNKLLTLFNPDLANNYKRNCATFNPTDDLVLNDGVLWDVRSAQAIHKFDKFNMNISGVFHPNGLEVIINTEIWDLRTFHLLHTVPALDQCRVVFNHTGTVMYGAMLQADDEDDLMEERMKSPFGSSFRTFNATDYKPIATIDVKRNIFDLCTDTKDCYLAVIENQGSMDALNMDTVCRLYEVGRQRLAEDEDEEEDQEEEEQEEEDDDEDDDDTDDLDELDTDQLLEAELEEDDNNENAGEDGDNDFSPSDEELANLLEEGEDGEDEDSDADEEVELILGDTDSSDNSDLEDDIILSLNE
WDR5: WD repeat-containing protein 5 (WDR5, Homo sapiens, UniProt P61964)
The “SYPRO Orange fluorescence” was 56800 a.u. (DCAF1; 66.61 °C).
It gave 27300 a.u. for “SYPRO Orange fluorescence” (WDR5; 81.21 °C).
DCAF1; 93.81 °C — “SYPRO Orange fluorescence”: 31200 a.u.
It gave 14300 a.u. for “SYPRO Orange fluorescence” (DCAF1; 49.6 °C).
The “SYPRO Orange fluorescence” was 8260 a.u. (DCAF1; 32.6 °C).
WDR5; 26 °C — “SYPRO Orange fluorescence”: 14700 a.u.
The “SYPRO Orange fluorescence” was 53600 a.u. (DCAF1; 70.81 °C).
The “SYPRO Orange fluorescence” was 56700 a.u. (DCAF1; 66.41 °C).
The “SYPRO Orange fluorescence” was 41000 a.u. (DCAF1; 60.61 °C).
For DCAF1; 93.01 °C: “SYPRO Orange fluorescence” read 32100 a.u.
WDR5; 58.81 °C — “SYPRO Orange fluorescence”: 11100 a.u.

Excerpt of the above (sample 4):
WDR5; 26 °C — “SYPRO Orange fluorescence”: 14700 a.u.
DCAF1; 93.81 °C — “SYPRO Orange fluorescence”: 31200 a.u.
WDR5; 58.81 °C — “SYPRO Orange fluorescence”: 11100 a.u.
The “SYPRO Orange fluorescence” was 53600 a.u. (DCAF1; 70.81 °C).
It gave 14300 a.u. for “SYPRO Orange fluorescence” (DCAF1; 49.6 °C).
